Measurements from different studies.
Parts stem from different laboratories: compare values within a part only. Changes are numbered by the printed parent chain.

Series 1
Target: RING finger protein unkempt homolog, zinc fingers 1-6, GST-SBP tag (UNK, Homo sapiens, UniProt Q9C0B0, residues 30-357)
Technique: RNA Bind-n-Seq
Molecule type: RNA
Matrix: in vitro
Concentration: not given
Setting: RNA with constant flanks, human and mouse sites, ends assumed
Relative to: input RNA pool
Reading: higher = stronger binding
Constant ends, left off below: GGGAGUUCUACAGUCCGACGAUC … CAACAGAGGAUUGAGCAUCA
Construct (chain): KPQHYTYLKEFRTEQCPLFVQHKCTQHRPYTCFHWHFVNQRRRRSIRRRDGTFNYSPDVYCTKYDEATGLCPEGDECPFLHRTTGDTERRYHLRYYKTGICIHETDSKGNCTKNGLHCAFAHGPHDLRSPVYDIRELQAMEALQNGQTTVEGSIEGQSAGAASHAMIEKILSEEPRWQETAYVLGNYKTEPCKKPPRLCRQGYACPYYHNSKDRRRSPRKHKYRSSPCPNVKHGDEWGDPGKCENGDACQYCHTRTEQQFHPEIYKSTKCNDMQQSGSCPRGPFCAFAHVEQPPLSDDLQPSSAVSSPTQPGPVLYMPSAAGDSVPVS
Oligonucleotide	bound/input enrichment [ratio]
CGUCACAAAGAACUUUUUGCUUUGCAUCCAUCACCAGAUGAGGAAGAACCAAUAGAACGGCUUAGUGUUCCUGAUAUACCCAAAGAACAUUUUGGUCAAAGACUUCUUGUAAAAUGCUUA	0.14
UCAAGCUGUGCUGUAAAUAUCAUUUAGACCUAUUGAGAAUUAACAGCAAAUCUGAGCUACUUUAGUGUUACCAACUAUUAGUCUGCUGACUGUUUCUAUAACAAAAUACCUGAGACAAUC	1.3
AAAAAUUUUUUAUUAAAAAAAAUAAAAGAAAAGGACUCCGUCACUGUUACAUUUUUUCCCUCGUUUUACAAUUCUGGUGUGUGACCGAGACAGCCCACGGGAGACGCUGCCGUGAGGUGG	0.39
GAGCAGAGCCUGCACGAUGUGCUCUUCGACCUGAGCAAGACAGUGCUGCGCUGCAGCGGGAGCAUGACCAGGGACUCCUUCUCGGGGCUCUCCACAGAUAUGCACGACUAUGGUUUAAUC	0.0959
UUCCUGUUACCUUGAAAAAAUAAAAAUGUUAACAGGAAUGCAGUGUGCUCAUUCUCCCUAAAUAGUAAAUCCCACUGUAUACAAAACUGUUCUCUUGUUCUGCCUUUUAAAAUGUUCAUG	0.992
UACAAGGAAUUGAAGAAUUUGAUUCCUAAGUCAGCAGUGGGCACACUGUCUGGAAACUCUAGUAAUGUGAUCCAGCUAAUCAUCGAUGCCUACAACUCUCUUUCUUCAGAAGUCAUUCUG	0.0635
AACUACCAGGUGACAAACAGCAUGUUUGGUGCUUCAAGAAAGAAGUUUGUAGAGGGGGUGGACAGCGACUACCAUGAUGAGAACAUGUACUACAGCCAGUCUUCUAUGUUCCCACAUCGG	0.0876
CACAAGUGGAUGGUACUUUUGGAAACUGAACUCUUGUUGUUUUGUUUUUUUAUUGUAAGUCUUAGCCCUUAAUGGCUGAGUUGUCUCUUUAACCAGGAUGGCACUUUUAGGAAUGGUGAC	6.24

Series 2
Target: RNA binding protein fox-1 homolog 2, RRM domain, GST-SBP tag (RBFOX2, Homo sapiens, UniProt O43251-10, residues 100-194)
Technique: RNA Bind-n-Seq
Molecule type: RNA
Matrix: in vitro
Concentration: 365 nM
Setting: natural RNA segment, single round, ends assumed
Relative to: no-protein control
Reading: higher = stronger binding
Constant ends, left off below: GGGAGUUCUACAGUCCGACGAUC … UGGAAUUCUCGGGUGCCAA
Construct (chain): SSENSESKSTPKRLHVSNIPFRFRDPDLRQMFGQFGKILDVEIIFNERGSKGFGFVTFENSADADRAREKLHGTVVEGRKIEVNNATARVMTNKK
Oligonucleotide	RBNS enrichment (R)
UCAUUACAGAGGUAUGUCUUUGGUUCUUAAACUAUCUGUCUAAAAUAAAGCUGUAAAAAAUUAACAGCUUUAAAAGGCAACUUUUUUUUAAGUGGUAUAUUGUGAACUUU	0.419
CAGCUCGCCUGGAUCUGACUCCAAGUGGCUUGGGUGCCUGGUGGGCAGCACCUUGGAGACCAAGCAGCCAUCCCAGCGAAGACUUACCUGCCUGGCCCCACCACCUGGAG	0.335
UGUGCUCCCUGCCUUGCCUAGGAUGAAGCCUCCAGCGCUGCUCCCUGGCCCUGUUCCUGGCAUAUGGCAAUGUACCCCAGGCUCAGGGAUCUCCCUUCCUUGAGGAUGUU	0.474
CCCUGAAAUAUUUUCUACUUUAAAUUGUGGAUGAAGACCCUAUCUCCCACAAAUAAGUUCCCAUUUCCUUGUCUAAAGAUCUUUUUUUAAGUGUUCUGUGGCUGAUUUAC	0.443
UAAAAAGAGUCCUACCCCCCUCUUAAGCUGCAUAUCCCGUUCAGUUUAUUGCCCCCAUGGAGUUGAGUAAGCUUUUAAGACAGGAUAGGAAAGGGUCAACACUAAGGGGA	0.479
AAGAACGGCCACCCGGUUUUGCCAGCGUUCAGCGUCUGCCCAUGGACCCAUAAGGCACAUUAGCGUUGGGGGUCUCUUUUCAGCAGCCUCACAGACAUUCCCGUCCUUUC	0.231
AAGGUCUCUGAUCACACAGAAGCAGCCCUGCCCAGCCUGGUCAUUUGCUGUCCGCUUUUCUCUGUGACCACAGCAGCCCUGAACAACCAGUAUGUGUCUUCUUCUCCAGA	0.423
UUCAAGCUCAAACACCACCUCCCUUAUUCAGGACCGGCACUUCUUAAUGUUUGUGGCUUUCUCUCCAGCCUCUCUUAGGAGGGGUAAUGGUGGAGUUGGCAUCUUGUAAC	0.36

Series 3
Target: CCNE2, cyclin fold, Cln2 fusion (human)
Technique: yeast growth competition, sequencing
Matrix: yeast
Setting: strong parent motif
Relative to: not given
Reading: higher = stronger binding
Starting sequence: PPP1R3F docking peptide (human); VAPRRVLFADEAL; partner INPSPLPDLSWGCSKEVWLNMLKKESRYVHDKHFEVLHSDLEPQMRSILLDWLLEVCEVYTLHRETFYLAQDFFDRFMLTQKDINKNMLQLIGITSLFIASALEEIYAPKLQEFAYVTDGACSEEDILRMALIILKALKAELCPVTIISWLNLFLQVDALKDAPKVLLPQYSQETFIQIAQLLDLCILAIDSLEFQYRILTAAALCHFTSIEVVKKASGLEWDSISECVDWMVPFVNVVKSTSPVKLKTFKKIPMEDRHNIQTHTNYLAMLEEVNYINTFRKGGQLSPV
Substitution	normalised enrichment score
R4A	0.654
F8L	0.498
V6A	0.27
R5A L7A	-0.268
V1A	1.94
R5A	0.562
R5K F8L	0.211
P3A	3.43

Series 4
Target: Histone acetyltransferase KAT6A, winged helix 1, GST fusion (KAT6A, Homo sapiens, UniProt Q92794, residues 1-85)
Technique: protein binding microarray
Molecule type: double-stranded DNA, one strand shown
Matrix: in vitro
Concentration: not given
Setting: 8-mer, flanks averaged, mean of 2 arrays, mostly near background
Relative to: not given
Reading: higher = stronger binding
Residues (chain): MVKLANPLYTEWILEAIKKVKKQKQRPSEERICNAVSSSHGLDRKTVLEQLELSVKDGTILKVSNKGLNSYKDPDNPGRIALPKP
Oligonucleotide	E-score
ATGCTAAC	0.00964
GCTTTCCA	-0.0583
CGCAACAA	-0.0197
GACTACGC	0.221
AATCGGCG	0.336
GCGATCAC	0.257
AGATTACG	0.14
AGTTGCGA	-0.175
ATCCGTAC	0.294
AGACAGCA	-0.146
GGGTCTAA	-0.0994
AATTATCC	0.0273
AGTTGGAC	-0.039
AGTCACGC	0.0463
GGGGTCAA	0.0789
AACCCCTG	-0.247
ATAGAGCA	-0.193
CAGAATGG	-0.315
AGGTCCAA	-0.167
TACGAACA	-0.157
GGATGGAC	-0.12
AGGGAGAT	-0.215

A few entries again (series 3):
Substitution	normalised enrichment score
R5A	0.562
R4A	0.654
R5K F8L	0.211
P3A	3.43
V1A	1.94
V6A	0.27
F8L	0.498
R5A L7A	-0.268
